Assay results of several laboratories.
Each numbered part is a random draw from the data of one study; scales do not carry over between parts. Positions count from the first letter of the parent shown.

Series 1
Target: RNA binding protein fox-1 homolog 2, RRM domain, GST-SBP tag (RBFOX2, Homo sapiens, UniProt O43251-10, residues 100-194)
Method: RNA Bind-n-Seq
Form: RNA
Sample: in vitro
Tested at: 365 nM
Setting: natural RNA segment, single round, ends assumed
Reference: no-protein control
Direction: higher = stronger binding
All sequences stand within: GGGAGUUCUACAGUCCGACGAUC … UGGAAUUCUCGGGUGCCAA
Residues (chain): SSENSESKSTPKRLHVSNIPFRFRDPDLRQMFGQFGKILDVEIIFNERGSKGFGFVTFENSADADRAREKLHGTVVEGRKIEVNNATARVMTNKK
| Sequence | RBNS enrichment (R) |
| --- | --- |
| GCAACAAAUAUUUAUACAUACAAGAUGCUAGUUCAUUUGAAUAUUUCUCCCAACUUAUCCAAGGAUCUCCAGCUCUAACAAAAUGGUUUAUUUUUAUUUAAAUGUCAAUA | 0.515 |
| AGAUGUGACAGCUGGGCUCUGAAGCUAUUUCUGUGUGUGGAGGGAGACAGGAAAGGGUGCUGUGCUAGUAGUGAGAGUGACACAGAUUGCCUCAUGAUUGUCUGGAGUGU | 2.05 |
| UGUGCUUGUAUUUGCAAGUUGAAUUUUUUUAAUGUUGGUUCCAAAAACAGUGAAUUAGCUGAAAAGAAAUGGAGAAGUGUCUUGGAGAUUUACUGAAAUAGCUAAUUGUC | 0.679 |
| GUUGAGCCUUUUGAGUAUUUAAAAAAUAUAUACCAACAGAACUACUCUCCCAAGGAAAAUAUUGCCACCAUUUGUAGACCACGUAACCUUCAAGUAUGUGCUACUUUUUU | 0.339 |
| GUGGCAGUUGUUGCCUGAGCACCAAGUAACCCAAGCCACCUAUGUGACAACUUCUGGGCCCAGGAGUAAUUUCUCAGCAUUGAGGGUAAAAUAGGAUGGAGUGCUCUGUU | 0.528 |
| GCAUGGUUAUUAGCACUUUAUGCUGGGAGCCAGCAGAGUGGUGGACUUCCGUGCUGACUAAGCUGUGGCUCAGCAUUCCAUUGCACACUGGUGAAGUGAGUAGGGAUUGU | 0.758 |
| UGAUAAUUUGGGGUGUUUGGCUGUCAGCUAGGCUCAUGAAGUCCACUGUACUGUAAUGAUGGUAUUUACCUCUGUGCUAUUUUAAUUACCCUCGCGUCUGUGGAACUGCU | 0.497 |
| CCCCGUCCCAGAGGCCGCUGCCCCUGAGUUCUGACACUGUGUGUUUGGGAAGGUGGGUGAGGCUGGGCAGGGCCUGGCGGAGGUGGAGUGGCCACUGGCACUUGCCUGCU | 0.496 |
| ACCUUUUCUAGGAGGCAUUGCAGGGUUUCAAUACACAGGACAUGUUCUAGUUACAGAAGCCUUGCUCUGCUGUCAACAAUUGGGAAAUGCUCAUUUUUUCAUGUUUUGUG | 0.269 |
| AGUCAGGCUGUGGGCAAGUUCCUGACCACAGGGAGUAAAUUGGCCUCUUUGAUACACUUUUGCUUGCCUCCCCAGGAAAGAAGGAAUUGCAUCCAAGGUAUACAUACAUA | 0.318 |
| AGUAAUAACCGUAUUUUUCACAGGGUGACAAAUUGGGCCAAUAAAUCUGCCAUCUUUGAACUCAUCUUUGGUGGCUAGACUGCUACGGCAGCUUCUCUGAUGGGAAAGUU | 0.276 |
| GGUAAACUAAGCUAGUUUAACACUUGAGCAAAUGCUUAAGAAGGAAUUAAAAAAAAAAAGCUUUGCCAAUAGCUAAAAAGUACAAGCUAUUAAAAAUCAGAUUGAAAAGU | 0.482 |

Series 2
Target: RING finger protein unkempt homolog, zinc fingers 1-6, GST-SBP tag (UNK, Homo sapiens, UniProt Q9C0B0, residues 30-357)
UniProt Q9C0B0, sequence (30-357, looked up): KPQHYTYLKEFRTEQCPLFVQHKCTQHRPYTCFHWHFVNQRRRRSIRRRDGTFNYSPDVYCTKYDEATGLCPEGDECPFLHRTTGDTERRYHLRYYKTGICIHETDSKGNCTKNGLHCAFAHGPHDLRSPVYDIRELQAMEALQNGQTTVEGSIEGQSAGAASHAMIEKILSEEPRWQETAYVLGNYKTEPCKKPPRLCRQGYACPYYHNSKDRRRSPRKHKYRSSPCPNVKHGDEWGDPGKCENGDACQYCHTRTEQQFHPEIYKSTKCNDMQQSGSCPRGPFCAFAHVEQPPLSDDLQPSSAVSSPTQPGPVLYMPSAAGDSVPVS
Method: RNA Bind-n-Seq
Form: RNA
Sample: in vitro
Tested at: not given
Setting: RNA with constant flanks, human and mouse sites, ends assumed
Reference: input RNA pool
Direction: higher = stronger binding
All sequences stand within: GGGAGUUCUACAGUCCGACGAUC … CAACAGAGGAUUGAGCAUCA
| Sequence | bound/input enrichment |
| --- | --- |
| CAUGCAGCUGUCUUUGUUUUGUUCUUGGUAGCUGUUACUGCUACAUGUUUACAGUACUUUUAGUUUUAAUUUCGAAGUAAGCUUUUCUGACAGACAUUUUGCAACAACUUGACUGUUGUA | 0.606 ratio |
| CAGCCGCGUAUACCACUCCUGGGGCAGGGCGGGAGAGUAUUGUCUGUCCUAGAGUUUUGCUAGCACCUUUUUAAAGUGAUCUUAGCUUGCUUCUUAUGUGGGAACUGCCUAGACUUCCUA | 2.78 ratio |
| CUUGCAGAGGCUGAGAGUCCCCCCCCCACCUUUUUUUUCAUUUAGAUGUAACAAACCUAGUAGUUUAUGUUCAUCAAUUGUCUGUAUAUCUCUAUAUUUUAUCCAUGUACUCUUUUGAUG | 56.5 ratio |
| GAGAAGAGCAGCAAGAAGAAGACCGAGAAGAAACUUGCUGCUCGGGAAGAAGCUAAAUUGUUGGCGGGUUUCAUGGGCGUCAUGAAUAACAUGCGGAAACAGAAAACGUUGUGUGACGUG | 0.239 ratio |
| CAGCCCUGACAGUGGGCGGGAAAACCGUGUCACGCUUCUAUAAACCUGACUCUAGAUUGGAAUUUUACCGAGAUCUUGGACUGCCACCAAAACAGAUACAUAAAAUCUUUCAUGUGACAG | 0.326 ratio |
| AGUGAAAAUCUACCAGGCUCCUCUUGUGAGGGGCAGUUCCAGUGUGUCCAUGUAGGGUUCUAGCUACAUCGUUCUAGAAGAUAUGAGUUAAUCUCUAAUAAAAGGAAAAUUAAGACUGGG | 0.654 ratio |
| GAGAAUCCAUAUGACCUUGAUGCUUGGAGCAUUCUCAUUCGAGAGGCACAGAAUCAACCUAUAGACAAAGCACGGAAGACUUAUGAACGCCUUGUUGCCCAGUUCCCCAGUUCUGGCAGA | 0.469 ratio |
| GCCUACCUGUAUUCUUAUGUGAUGCCCCAGGCCAUCCGGGACAUGGUGGAUGAAUACAUCAACUGUGAGGACAUUGCCAUGAACUUCCUUGUCUCCCACAUCACUCGGAAGCCCCCCAUC | 0.284 ratio |
| AAAGGAAGUCUAAACAAAGCAAUAGAAGAUUUUGAGCUCGCAUUAGAAAACUGCCCAACUCAUAGGAAUGCAAGGAAAUAUCUCUGCCAGACACUUGUAGAAAGGGGAGGGCAGUUAGAA | 5.19 ratio |
| ACUGGCCCUCUGGUUCACUUCUAUUAUGAAUAAAUUUGCACCAAUAGCCCCAUUAGUUUUUAAAGAAAUGAGCUGGGUGGGAAAAGUGGAAAUGUAAUUUCUGGUAAGCUUGAGCUACUU | 1.56 ratio |
| UACAAUGUAUUUGUGUAAUUUAUAGAAGUAAAAUCUAGAUGUUGAGACCUGUUUGGUCUAAUAGAUGUGGAUACAGUUUAUUUUACUUGAAAUUUUGUUGUCUACUUUGUGUGUUUAACG | 1.49 ratio |

Series 3
Target: Sal-like protein 4, full length isoform B (SALL4, Homo sapiens, UniProt Q9UJQ4-2, residues 1-616)
Method: universal PBM
Form: double-stranded DNA, one strand shown
Sample: in vitro
Tested at: not given
Setting: 8-mer, flanks averaged, mean of replicates
Direction: higher = stronger binding
Construct (chain): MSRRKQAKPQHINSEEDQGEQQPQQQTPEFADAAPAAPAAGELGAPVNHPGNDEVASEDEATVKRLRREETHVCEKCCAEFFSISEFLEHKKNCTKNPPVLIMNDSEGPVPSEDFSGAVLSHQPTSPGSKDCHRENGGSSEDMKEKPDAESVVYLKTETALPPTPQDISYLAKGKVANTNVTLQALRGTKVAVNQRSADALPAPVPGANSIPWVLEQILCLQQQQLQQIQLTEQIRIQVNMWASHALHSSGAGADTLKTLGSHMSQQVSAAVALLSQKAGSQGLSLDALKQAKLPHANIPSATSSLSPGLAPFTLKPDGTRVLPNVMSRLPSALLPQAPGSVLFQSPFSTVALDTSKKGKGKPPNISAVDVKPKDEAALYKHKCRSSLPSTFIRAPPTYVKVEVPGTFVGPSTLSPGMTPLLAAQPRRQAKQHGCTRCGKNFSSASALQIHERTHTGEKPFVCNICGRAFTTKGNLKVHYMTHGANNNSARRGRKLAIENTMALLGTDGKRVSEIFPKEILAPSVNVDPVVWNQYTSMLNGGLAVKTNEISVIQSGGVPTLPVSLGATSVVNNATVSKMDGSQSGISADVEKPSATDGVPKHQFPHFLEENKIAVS
| Sequence | E-score |
| --- | --- |
| CGAGGATC | -0.123 |
| ATCGCAGG | -0.0633 |
| ATGGTGAC | -0.017 |
| ACTACATC | 0.0868 |
| ACAGTGAC | -0.00831 |
| GTGGAACA | -0.0723 |
| ACGTAGCG | -0.134 |
| ACAACTGA | 0.126 |
| ATCACCTC | 0.0431 |
| ACGACGCA | -0.0123 |
| GGTTATGA | 0.301 |
| AGCGAGAT | -0.0682 |
| GCTAACGA | -0.00586 |
| GTTAGAGA | 0.00183 |
| AAAGGACT | -0.0235 |
| AAGCGCCT | -0.183 |
| TTGCACAA | 0.0936 |
| CATATCCG | 0.0923 |
| GAACTGAA | 0.108 |
| ACTCGGGG | -0.197 |
| ATGCACCC | -0.0511 |
| GATAGTCC | 0.0292 |
| CCCCAAAG | -0.218 |
| AGTCTTCG | -0.0863 |

Series 4
Target: CCNE2, cyclin fold, Cln2 fusion (human)
Method: yeast growth competition, sequencing
Sample: yeast
Setting: weak parent motif
Reference: not given
Direction: higher = stronger binding
Starting sequence: PKN2 docking peptide (human); VSAVQKLDFSDTM
| Change | normalised enrichment score |
| --- | --- |
| D8R | 0.258 |
| A3Q | 0.0633 |
| M13Q | -0.129 |
| V4L | 0.206 |
| S2C | -0.273 |
| D11T | 0.658 |
| S2V | 0.069 |
| S2P | -0.0347 |
| S2L | -0.231 |
| D8K | 0.477 |
| M13E | 0.412 |
| M13T | 0.31 |
| D11G | 0.706 |
| F9W | -0.357 |
| A3Y | 0.418 |
| T12E | 0.566 |
| L7T | -0.104 |
| D8S | 0.471 |
| L7R | -0.131 |
| A3P | 0.398 |
| S2Q | 0.312 |
| K6M | 0.403 |
| Q5A L7A | 0.167 |
| M13L | 0.405 |
| V4Y | 0.086 |

Series 5
Target: Histone acetyltransferase KAT6A, winged helix 1, GST fusion (KAT6A, Homo sapiens, UniProt Q92794, residues 1-85)
Method: protein binding microarray
Form: double-stranded DNA, one strand shown
Sample: in vitro
Tested at: not given
Setting: 8-mer, flanks averaged, mean of 2 arrays, mostly near background
Reference: not given
Direction: higher = stronger binding
Target sequence (chain): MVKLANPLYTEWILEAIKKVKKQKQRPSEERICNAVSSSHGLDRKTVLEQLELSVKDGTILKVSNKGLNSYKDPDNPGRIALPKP
| Sequence | E-score |
| --- | --- |
| CCCACTGC | -0.103 |
| AAAACTTC | -0.0776 |
| GGTTTGTA | -0.184 |
| AAGTAATT | -0.0944 |
| ACTACCCA | -0.203 |
| AAGGAGCA | -0.26 |
| GAACAGCA | -0.103 |
| CGTCAGCA | 0.0237 |
| CTAGGGTA | -0.08 |
| AGGTGGTA | -0.0346 |
| GAAGAATA | -0.251 |
| TAAGGCGA | 0.00918 |
| GTCACATA | -0.0201 |
| CTCCTTTC | 0.0483 |
| AGATACTG | -0.134 |
| ATGTCATA | -0.0453 |
| AACAACTC | -0.258 |
| CTGATGGC | -0.000285 |
| AACAAACT | -0.208 |
| GAGCATGA | -0.143 |
| CAGGGGCC | 0.0938 |

Excerpt of the above (series 3):
| Sequence | E-score |
| --- | --- |
| ATCACCTC | 0.0431 |
| AGTCTTCG | -0.0863 |
| AAAGGACT | -0.0235 |
| GCTAACGA | -0.00586 |
| ATGGTGAC | -0.017 |
| GTTAGAGA | 0.00183 |
| GATAGTCC | 0.0292 |
| AGCGAGAT | -0.0682 |
| AAGCGCCT | -0.183 |
| GTGGAACA | -0.0723 |
